Measured values gathered from unrelated publications.
± marks the error that the study gave.

Cc1nc(NC(=O)N2CCC[C@H]2C(N)=O)sc1-c1ccnc(C(C)(C)C(F)(F)F)c1 — GR50 (T47D; cell growth; 72 h): 67.2 nM
CCN(CC)CCNC(=O)c1c(C)[nH]c(/C=C2\C(=O)Nc3ccc(F)cc32)c1C — cell index (iCell Cardiomyocytes (hiPSC-derived); cellular impedance; concentration not given, 24 h; relative to: control): 106%
O=C(Nc1c[nH]nc1-c1nc2ccc(CN3CCOCC3)cc2[nH]1)NC1CC1 — fibulin-3 level (ARPE-19 HiBiT fibulin-3; HiBiT luminescence; 5 µM): -37.9%
CCCCN1CCN(c2ccc3[nH]c(-c4ccc5[nH]c(-c6cc(OC)c(OC)c(OC)c6)nc5c4)nc3c2)CC1 — growth percent (NCI/ADR-RES; cell growth, NCI-60 SRB; 10 µM, 48 h): 102%
C[C@@H](NC(=O)c1ccc(C#Cc2cccc(F)c2)cn1)C(C)(C)O — maximal response (rat cortical astrocytes; calcium mobilization; compound alone; relative to: glutamate maximum): 16 ± 0.8%
C=CC(=O)Nc1cc2c(Nc3ccc(F)c(Cl)c3)ncnc2cc1OCCCN1CCOCC1 — cell index (iCell Cardiomyocytes (hiPSC-derived); cellular impedance; concentration not given, 24 h; relative to: control): 96.8%
CCn1c(-c2nonc2N)nc2cncc(CNC3CCNCC3)c21 — relative cell number (SK-OV-3; ATP; 10 µM, 4 days, 3D U-bottom low-attachment; relative to: untreated): 102%
CC(C)NCC(O)c1ccc(O)c(O)c1 (stereo not drawn) — sarcomere length (mouse ventricular cardiomyocytes; dose not given, 0.171 s): 1.61 µm
CC1(C)CCC(CN2CCN(c3ccc(C(=O)NS(=O)(=O)c4ccc(NCC5CCOCC5)c([N+](=O)[O-])c4)c(Oc4cnc5[nH]ccc5c4)c3)CC2)=C(c2ccc(Cl)cc2)C1 — early apoptotic cells (THP-1; annexin V/PI flow cytometry, measured: annexin V+/PI-; 1.6 µM, 24 h): 3.3%
CC(C)(C)c1cnc(CSc2cnc(NC(=O)C3CCN(C(=O)CCCCCCCN4Cc5cc6c(cc5C4)C(=O)N(C4CCC(=O)NC4=O)C6=O)CC3)s2)o1 (stereo not drawn) — cleaved caspase-3 and PARP (TC-71; Western blot; concentration not given, 24 h): increased
C[C@H]1CN(C2COC2)CCN1c1ccc(Nc2cc(-c3ccnc(N4CCn5c(cc6c5CC(C)(C)C6)C4=O)c3CO)cn(C)c2=O)nc1 — maximum inhibition (Ramos; calcium flux, FLIPR; 2 h preincubation): 91.1%
c1ccc2[nH]ccc2c1 — mRNA level, LS mean (HCT-8; RNA-seq, measured: GDF15; concentration not given): 517 counts per million
OC[C@@H](O)[C@H](O)[C@H](O)[C@@H](O)CO — z-scored log2 fold change (binding, equilibrium dialysis LC-MS; 5 µM, thermostabilized A2AR-BRIL construct; relative to: no-protein control, direction not given): 0.166
O=C(O)c1ccc(-c2c[nH]c3ncc(-c4ccccc4)cc23)cc1C1CCCC1 — relative cell number (SK-OV-3; ATP; 10 µM, 4 days, 3D gellan gum culture; relative to: untreated): 101%
O=C(/C=C/C=C/C=C/C1CCCCC1)NC1=C[C@@](O)(/C=C/C=C/C=C/C(=O)NC2=C(O)CCC2=O)[C@@H]2O[C@@H]2C1=O — GI50 (HCC15; cell growth, CellTiter-Glo; 78 h): 25.2 µM
Cn1cc(-c2ccc(F)c(C(F)(F)F)c2)nc1C1CCN(c2ncnc3[nH]ncc23)CC1 — relative cell number (SK-OV-3; ATP; 10 µM, 4 days, 3D gellan gum culture; relative to: untreated): 94.4%
Cc1cn(-c2cc(NC(=O)c3ccc(C)c(Nc4nccc(-c5cccnc5)n4)c3)cc(C(F)(F)F)c2)cn1 — beat amplitude (iCell Cardiomyocytes (hiPSC-derived); xCELLigence Cardio impedance; concentration not given, 2 h; relative to: control): 107%
Cn1cc(-c2ccc(-c3cncc(Cl)c3N3CCC4(CCNC4=O)CC3)cc2)cn1 — log2 fold change (COLO 205; gene expression, microarray, measured: HIF1A mRNA; concentration not given, 6 h; relative to: untreated cells): -2.03
COc1cnc2cccc(N3CCc4c(cc(Cn5ccnc5C)cc4-c4cn(C)nc4C(F)(F)F)C3=O)c2c1 — EC50 (CAL-120; cell growth, inhibitor; 120 h): 7.16 µM
c1cnc2c(c1)ccc1cccnc12 — IL-1β mRNA level (differentiated THP-1; 25 µg/mL; relative to: untreated): decreased
CCn1cc(-c2cc(Cn3ccnc3)cc3c2CCN([C@H](c2cc(OC)ccn2)C2CC2)C3=O)c(C(F)(F)F)n1 — EC50 (Detroit 562; cell growth; 120 h): > 30 µM
O=c1[nH]nc(OCCCc2ccc(Cl)cc2)c(NCc2cccnc2)c1Br — normalized enrichment score (HEK-293T; RNA-seq GSEA, measured: HALLMARK_UV_RESPONSE_UP; concentration not given; direction not given): -1.43
O=C(NOCC1CC1)c1ccc(F)c(F)c1Nc1ccc(I)cc1Cl — ATP level (iCell Cardiomyocytes (hiPSC-derived); CellTiter-Glo; concentration not given, 24 h; relative to: control): 96.4%
CN1C(=O)C2(NN=C(c3ccccc3)S2)c2ccccc21 (stereo not drawn) — viability loss (TNBC cells; MTT; 10 µM, 24 h): 50 to 60%
COc1ccc(C[C@H](N)C(=O)N[C@H]2[C@@H](O)[C@H](n3cnc4c(N(C)C)ncnc43)O[C@@H]2CO)cc1 — secreted Gaussia luciferase (HEK293; protein secretion; concentration not given, unit not given; relative to: mock): 0.115
CCn1c(-c2nonc2N)nc2c(C#CC(C)(C)O)ncc(OC[C@H]3CCCNC3)c21 — ATP level (iCell Cardiomyocytes (hiPSC-derived); CellTiter-Glo; concentration not given, 24 h; relative to: control): 86.7%
C=CC1=C(C)c2cc3[n-]c(cc4nc(cc5[n-]c(cc1n2)c(C)c5C=C)C(C)=C4CCC(=O)O)c(CCC(=O)O)c3C.[Zn+2] — log2 fold change (SH-SY5Y; RNA-seq, measured: SIRPG-AS1; 5 µM, 5 h; relative to: untreated): 9.97
CC[C@H](C)[C@H](NC(=O)[C@H](CCC(N)=O)NC(=O)CNC(=O)[C@H](Cc1c[nH]cn1)NC(=O)[C@H](CCCCN)NC(=O)[C@H](Cc1c[nH]cn1)NC(=O)[C@H](Cc1c[nH]cn1)NC(=O)CN)C(=O)N[C@@H](CCSC)C(=O)N1CCC[C@H]1C(=O)N[C@@H](CCSC)C(=O)N[C@@H](CO)C(=O)NCC(=O)NCC(=O)NCC(=O)N[C@@H](CO)C(=O)N[C@@H](CCCCNC(=O)CCCC[C@@H]1SC[C@@H]2NC(=O)N[C@@H]21)C(=O)O — binding (U-251 (EphA2 high); confocal microscopy; 10 µM, 20 min, 37 °C, biotin-labelled peptide): binds
C=CC(=O)N1CCC[C@@H](c2ccc(C(N)=O)c3[nH]ccc23)C1 — inhibition (TMD8 RAC2 knockout; calcium flux, FLIPR; concentration not given, 1 h preincubation): 74.1%
CCn1cc(-c2cc(Cn3ccoc3=N)cc3c2CCN([C@@H](C)c2cc(OC)ccn2)C3=O)c(C(F)(F)F)n1 — EC50 (CAKI-2; cell growth, inhibitor; 120 h): > 30 µM
CC1(C)COc2ccc(F)cc2CN2c3nc4c(cnn4cc3OC[C@H]2C(F)F)C(=O)N1 — IC50 (Ba/F3 EML4-ALK variant 1 E1210K; cell viability): 0.00741 µM
CC[C@@H]1C(=O)N(C)c2cnc(Nc3ccc(C(=O)NC4CCN(C)CC4)cc3OC)nc2N1C1CCCC1 — cell index (iCell Cardiomyocytes (hiPSC-derived); cellular impedance; concentration not given, 24 h; relative to: control): 57.1%
COC(=O)c1cc(C(C)=NNc2nc(-c3ccc4c(c3)OCCCO4)cs2)ccc1O — cells in S phase (T47D; flow cytometry; 10 µM, 72 h): 12.7 ± 1.18%
Nc1nc2c(ncn2[C@@H]2O[C@H](COP(=O)(O)O)[C@@H](O)[C@H]2O)c(=O)[nH]1 — z-scored log2 fold change (binding, equilibrium dialysis LC-MS; 5 µM, thermostabilized A2AR-BRIL construct; relative to: no-protein control, direction not given): 0.168
Cc1cc2c(F)c(Oc3ncnn4cc(OC[C@@H](C)O)c(C)c34)ccc2[nH]1 — beat amplitude (iCell Cardiomyocytes (hiPSC-derived); xCELLigence Cardio impedance; concentration not given, 2 h; relative to: control): 93.1%
COc1ccc(Cc2ncnc3cc(OC)c(OC)cc23)cc1OC — inhibition (A549; mitochondrial oxygen consumption, Seahorse XF96; 10 µM): 22%
CC1(COc2ccc(CC3SC(=O)NC3=O)cc2)CCCCC1 (stereo not drawn) — maximal ROS response (HepaRG; ROS-Glo): -82.6 ± 15.6%
Cc1ccc(Nc2nccc(N(C)c3ccc4c(C)n(C)nc4c3)n2)cc1S(N)(=O)=O — cell index (iCell Cardiomyocytes (hiPSC-derived); cellular impedance; concentration not given, 24 h; relative to: control): 97.1%
COc1ccc(Cc2ccnc3cc(OC)c(OC)cc23)cc1OC — inhibition (A549; mitochondrial oxygen consumption, Seahorse XF96; 10 µM): 0%
C=C(c1ccc(OC)cc1)[C@@H]1c2cc(Oc3cc(C[C@H]4c5cc(OC)c(OC)cc5CCN4C)ccc3O)c(OC)cc2CCN1C — inhibition (3T3-L1; adipocyte lipid accumulation, Nile Red staining; 5 µM): 22.6 ± 1.1%
CCCCc1nc(Cl)c(CO)n1Cc1ccc(-c2ccccc2-c2nn[nH]n2)cc1 — log2 fold change (human PBMC; RNA-seq, measured: TGM2 mRNA; 10 µg/mL, 24 h; relative to: untreated control): 1.75
Cn1cc(Nc2nccc(-c3ccc4c(c3)CN(C3COC3)CC[C@H]4NC(=O)c3cn(C(C)(C)C)nn3)n2)cn1 — pathway activation z-score (mouse splenic B cells; measured: BAG2 signalling pathway; 30 mg/kg, IgD-activated in vivo; relative to: vehicle, direction not given): -0.632
